Assay results of several laboratories.
Each line is one published result; not all experiments were run side by side. “And” joins repeats or separate records; there may be more than shown. Numbers after ± are the reported error.

Structure (SMILES) | cell line | assay | conditions | scale | measurement | result
C[C@H](Nc1ccc2c(c1)OCCn1cc(N3C(=O)OC[C@H]3C(F)F)nc1-2)C(N)=O | HCC202 | CellTiter-Glo | 120 h |  | Hill coefficient GR curve | 1.12
c1ccc2[nH]ccc2c1 | HCT-8 | RNA-seq, measured: FITM1 | concentration not given |  | mRNA level, LS mean | 2.94 counts per million
C=CC1=C(C)c2cc3[n-]c(cc4nc(cc5[n-]c(cc1n2)c(C)c5C=C)C(C)=C4CCC(=O)O)c(CCC(=O)O)c3C.[Zn+2] | SH-SY5Y | RNA-seq, measured: SPHK1 mRNA | 5 µM, 5 h | baseline: untreated cells | fold change | 1.99
CCn1cc(-c2cc(Cn3ccoc3=N)cc3c2CCN([C@@H](C)c2cc(OC)ccn2)C3=O)c(C(F)(F)F)n1 | TE-5 | cell growth, inhibitor | 120 h |  | EC50 | 4250 nM
COc1cc(/C=C/C(=O)N2CCC=CC2=O)cc(OC)c1OC | MDA-MB-468 | quantitative RT-PCR, measured: MnSOD | 30 µM, 8 h | baseline: untreated | mRNA level | 110 ± 4.1%
Cc1cccc(-c2[nH]c(CNc3ccccc3F)nc2-c2ccc3ncnn3c2)n1 | patient CD138+ cells | flow cytometry, measured: annexin V and PI | 1 µM, autologous CD8+ T-cell co-culture |  | apoptotic cells | 6.46% and 5.21% and 9.58% and 12.1%
Cn1cnc2c(F)c(Nc3ccc(Br)cc3F)c(C(=O)NOCCO)cc21 | A-375 |  | 10 µM, 72 h |  | viability | 18%
Cc1nc(Nc2n[nH]c3c2CN(C(=O)N[C@H](CN(C)C)c2ccccc2)C3(C)C)c2sccc2n1 | HD-MB03 |  | concentration not given, together with: ribociclib NG | baseline: ribociclib over DMSO | fold change in IC50 | 1.85
O=C(NOC[C@H](O)CO)c1ccc(F)c(F)c1Nc1ccc(I)cc1F | A-375 |  | 0.1562 µM, 72 h |  | viability | 14%
Nc1ccn([C@@H]2O[C@H](CO)[C@@H](O)C2(F)F)c(=O)n1 | BXPC-3 | cell proliferation, CCK-8 | 4 d | baseline: untreated | ED50 | 18.4 ± 1.3 nM
CCn1cc(-c2cc(Cn3ccnc3)cc3c2CCN([C@H](c2cc(OC)ccn2)C2CC2)C3=O)c(C(F)(F)F)n1 | BICR56 | cell growth | 120 h |  | EC50 | 28100 nM
C=CCn1c(=O)c2cnc(Nc3ccc(N4CCN(C)CC4)cc3)nc2n1-c1ccc2c(n1)[C@@](O)(CC)CC2 | MDA-MB-231 | flow cytometry | concentration not given |  | cells in G1 phase among γH2AX-positive cells | 8.8%
CC(C)=CCC[C@@]1(C)C(CC[C@H]2[C@]3(C)CC[C@H](O)C(C)(C)O[C@H]3CC[C@@]2(C)O)=C(C)CC[C@H]1O | KB-C2 (P-gp overexpressing) | drug efflux | 10 µM, 60 min |  | intracellular [3H]-paclitaxel remaining | 63.6%
CCOc1cc(C(C)(C)C)ccc1C1=N[C@@](C)(c2ccc(Cl)cc2)[C@@](C)(c2ccc(Cl)cc2)N1C(=O)N1CCN(CCCS(C)(=O)=O)CC1 | HD-MB03 | cell growth | 168 h, DMSO |  | IC50 | 793 nM
O=C(Nc1nnc2n3c(nc(-c4ccc(Cl)cc4)c1-2)SCC3=O)c1ccccc1 | SN12C | SRB | 10 µM, NCI60 single-dose screen | baseline: untreated | cell growth | 96.6%
Nc1nc(N)c2nc(CNCc3ccc(Oc4ccccc4)cc3)cnc2n1 | 786-O | high-content imaging, measured: MitoTracker Red uptake | 10 µM |  | mitochondrial toxicity | -6.05 ± 11%
CCCCc1oc2ccc(NS(C)(=O)=O)cc2c1C(=O)c1ccc(OCCCN(CCCC)CCCC)cc1 | human embryonic stem cell aggregates | mRNA level, microarray, measured: GRIA1 | 0.5 µM, 120 h | baseline: untreated, up-regulated | fold change | 2.4 fold
Cn1cc(Nc2nccc(-c3ccc4c(c3)CN(C3COC3)CC[C@H]4NC(=O)c3cn(C(C)(C)C)nn3)n2)cn1 | mouse splenic B cells | measured: Dolichyl-diphosphooligosaccharide biosynthesis | 30 mg/kg, IgD-activated in vivo | baseline: vehicle, direction not given | pathway activation z-score | -1
CC/C(=N\NC(=O)NCc1cccc(O)c1)c1ccc(O)c(C)c1O | SK-OV-3 | Western blot | 10 µM, 6 h, 2D culture, unit not given | baseline: DMSO | LATS band intensity | 1 ± 0.41
C=C[C@@]1(C)CC(=O)[C@]2(O)[C@@]3(C)[C@@H](O)CCC(C)(C)[C@@H]3[C@H](O)[C@H](OC(C)=O)[C@@]2(C)O1 | human cord blood-derived mast cells |  | 0.1 µM, together with: LTD4 |  | PGD2 generation | inhibited
O=C(/C=C/C=C/C=C/C1CCCCC1)NC1=C[C@@](O)(/C=C/C=C/C=C/C(=O)NC2=C(O)CCC2=O)[C@@H]2O[C@@H]2C1=O | NCI-H358 | cell growth, CellTiter-Glo | 78 h |  | GI50 | 12000 nM
COCCn1cc(COc2cccc(Cc3cnc(NC(=O)CSc4nc(-c5ccccc5)cc(-c5ccccc5)n4)s3)c2)nn1 | HGC-27 | cell viability, MTS | 10 µM |  | inhibition | 29 ± 7%
Cc1nn(-c2nc3ccc(Cl)c(Cl)c3[nH]2)c(O)c1C1OC(=O)c2ccccc21 (stereo not shown) | RAW-ISG | IFN luciferase reporter | 10 µM, together with: HT-DNA |  | inhibition | 85.9% and 85.6% and 86% and 85.7% and 86.3%

Structure (SMILES) | cell line | assay | conditions | scale | measurement | result
C=Cc1c2[n-]c(c1C)/C=c1\[n-]/c(c(C)c1C=C)=C\c1[n-]c(c(CCC(=O)O)c1C)/C=c1\[n-]c(c(C)c1CCC(=O)O)=C2.[Sn+4] | SH-SY5Y | RNA-seq, measured: SH3TC1 mRNA | 5 µM, 5 h | baseline: untreated cells | fold change | 1.78
COc1cc(Br)c(Nc2nc(-c3c(C)nc4ncccn34)cs2)c(Br)c1 | HD-MB03 | cell growth | DMSO |  | IC50 | 986 nM
Cc1cnc(NC2CCOCC2)nc1-n1cnc(C(=O)NC(CN)c2cc(F)cc(Cl)c2)c1 (stereo not shown) | A-375 | flow cytometry | 1 µM, 48 h |  | G2 phase cells | 1.3%
COc1ccc(Oc2ccc(CNCc3cnc4nc(N)nc(N)c4n3)cc2)cc1 | 786-O | high-content imaging, measured: MitoTracker Red uptake | 10 µM |  | mitochondrial toxicity | -5.87 ± 28.9%
C=C1CC(C(=O)Nc2cc(C(=O)NC)cc(-c3sccc3CCCCCCCC)c2OC)C1 | HMC3 expressing human TREM2 | fluorescent latex beads | 25 µM, 1 h | baseline: control | phagocytosis | 155%
COc1cc(C)nc(-n2nc(C)cc2OC)n1 | primary rat hippocampal/cortical neuron-glia cultures |  | 1 µM, together with: 1 µM α-synuclein oligomers |  | reversal of trafficking deficit | 6.71%
O=C1c2ccncc2C(=O)c2c1[nH]c1ccccc21 | pulmonary arterial smooth muscle cells, PAH patient | increased | concentration not given |  | Bak and Smac/Diablo protein levels | increased
CC(C)NCC(O)c1ccc(O)c(O)c1 (stereo not shown) | mouse ventricular cardiomyocytes |  | dose not given, 0.215 s |  | sarcomere length | 1.77 µm
Cc1cc(Nc2ncc(Cl)c(Nc3ccccc3S(=O)(=O)C(C)C)n2)c(OC(C)C)cc1C1CCNCC1 | CLB-BAR | phosphoproteomics LC-MS/MS, measured: PDCD11 phosphorylation | 200 nM, 60 min | baseline: untreated | log2 fold change | -1.82
C[N+]1(C)CCC(OC(=O)C(O)(c2ccccc2)C2CCCC2)C1 (stereo not shown) | primary rat hippocampal/cortical neuron-glia cultures |  | 1 µM, together with: 1 µM α-synuclein oligomers |  | reversal of trafficking deficit | 8.04%
Oc1nc(-c2ccc(C(F)(F)F)cc2)nc2c1CSCC2 | HD-MB03 |  | 168 h |  | IC50 | inactive
Nc1cc2cccnc2c2ncccc12 | HFF-1 and PC-3 | MTT | 48 h, dark | baseline: IC50 HFF-1 over IC50 PC-3 | selectivity ratio | 2.1
COc1cc(Nc2c(C#N)cnc3cc(OCCCN4CCN(C)CC4)c(OC)cc23)c(Cl)cc1Cl | HD-MB03 | cell growth | 168 h, single agent |  | IC50 | 3210 nM
CC(=O)O[C@H]1C(=O)[C@@]2(C)[C@H]([C@H](OC(=O)c3ccccc3)[C@]3(O)C[C@H](OC(=O)[C@H](O)[C@@H](NC(=O)c4ccccc4)c4ccccc4)C(C)=C1C3(C)C)[C@]1(OC(C)=O)CO[C@@H]1C[C@@H]2O | CHP-212 resistant sublines, USP7 V517F heterozygous |  | 0.04115 µM |  | viability | 62.3%
COc1cnc2cccc(N3CCc4c(cc(Cn5ccnc5C)cc4-c4cn(C)nc4C(F)(F)F)C3=O)c2c1 | NCI-H358 | cell growth, inhibitor | 120 h |  | EC50 | 7100 nM
CC(=O)N1CCCC(N2C(=O)c3cccc(N)c3C2=O)C1 (stereo not shown) | RAW 264.7 | measured: IL-6 | 30 µM, together with: LPS |  | inhibition | 11% and ~10%
CC1(C)CN=C(N2CCN(c3ncnc4sc(CC(F)(F)F)cc34)CC2)S1 | HD-MB03 | cell growth | DMSO |  | IC50 | 192 nM
COc1ccc(NC(=S)N/N=C/c2cccc3cc4ccccc4nc23)cc1 | HeLa | annexin V/PI flow cytometry | IC50, 48 h, annexin V-negative PI-positive |  | necrotic cells | 8.23%
Clc1nc(NCc2ccco2)c2[nH]cnc2n1 | FD iPSC-derived cardiomyocytes | alternative splicing, RNA-seq, measured: DMKN exon chr19(-):35508204-35508240 | unit not given | baseline: DMSO minus compound | ΔPSI | -0.278
O=C1[C@H](Cc2ccc(O)cc2)N2C(=O)CCN(C(=O)NCc3ccccc3)[C@H]2CN1Cc1cccc2ccccc12 | HD-MB03 | cell growth | single agent |  | IC50 | 655 nM
Cc1ccc(-c2cc(C(F)(F)F)nn2-c2ccc(S(N)(=O)=O)cc2)cc1 | RAW264.7 | ELISA | concentration not given, 24 h, together with: LPS 100 ng/mL |  | PGE2 level | 120 pg/mL
CCc1cc2c(cc1N1CCC(N3CCOCC3)CC1)C(C)(C)c1[nH]c3cc(C#N)ccc3c1C2=O | HD-MB03 | cell growth | 168 h, single agent |  | IC50 | 605 nM
Cn1cc(-c2ccc(-c3cncc(Cl)c3N3CCC4(CCNC4=O)CC3)cc2)cn1 | COLO 205 | microarray, measured: E2F1 | concentration not given, 2 h | baseline: untreated cells | fold change in expression | -2.06
